Measured values pooled from the literature.
Numbers after ± are the reported error.
Chain of UniProt P0A8T7 (whole entry, looked up): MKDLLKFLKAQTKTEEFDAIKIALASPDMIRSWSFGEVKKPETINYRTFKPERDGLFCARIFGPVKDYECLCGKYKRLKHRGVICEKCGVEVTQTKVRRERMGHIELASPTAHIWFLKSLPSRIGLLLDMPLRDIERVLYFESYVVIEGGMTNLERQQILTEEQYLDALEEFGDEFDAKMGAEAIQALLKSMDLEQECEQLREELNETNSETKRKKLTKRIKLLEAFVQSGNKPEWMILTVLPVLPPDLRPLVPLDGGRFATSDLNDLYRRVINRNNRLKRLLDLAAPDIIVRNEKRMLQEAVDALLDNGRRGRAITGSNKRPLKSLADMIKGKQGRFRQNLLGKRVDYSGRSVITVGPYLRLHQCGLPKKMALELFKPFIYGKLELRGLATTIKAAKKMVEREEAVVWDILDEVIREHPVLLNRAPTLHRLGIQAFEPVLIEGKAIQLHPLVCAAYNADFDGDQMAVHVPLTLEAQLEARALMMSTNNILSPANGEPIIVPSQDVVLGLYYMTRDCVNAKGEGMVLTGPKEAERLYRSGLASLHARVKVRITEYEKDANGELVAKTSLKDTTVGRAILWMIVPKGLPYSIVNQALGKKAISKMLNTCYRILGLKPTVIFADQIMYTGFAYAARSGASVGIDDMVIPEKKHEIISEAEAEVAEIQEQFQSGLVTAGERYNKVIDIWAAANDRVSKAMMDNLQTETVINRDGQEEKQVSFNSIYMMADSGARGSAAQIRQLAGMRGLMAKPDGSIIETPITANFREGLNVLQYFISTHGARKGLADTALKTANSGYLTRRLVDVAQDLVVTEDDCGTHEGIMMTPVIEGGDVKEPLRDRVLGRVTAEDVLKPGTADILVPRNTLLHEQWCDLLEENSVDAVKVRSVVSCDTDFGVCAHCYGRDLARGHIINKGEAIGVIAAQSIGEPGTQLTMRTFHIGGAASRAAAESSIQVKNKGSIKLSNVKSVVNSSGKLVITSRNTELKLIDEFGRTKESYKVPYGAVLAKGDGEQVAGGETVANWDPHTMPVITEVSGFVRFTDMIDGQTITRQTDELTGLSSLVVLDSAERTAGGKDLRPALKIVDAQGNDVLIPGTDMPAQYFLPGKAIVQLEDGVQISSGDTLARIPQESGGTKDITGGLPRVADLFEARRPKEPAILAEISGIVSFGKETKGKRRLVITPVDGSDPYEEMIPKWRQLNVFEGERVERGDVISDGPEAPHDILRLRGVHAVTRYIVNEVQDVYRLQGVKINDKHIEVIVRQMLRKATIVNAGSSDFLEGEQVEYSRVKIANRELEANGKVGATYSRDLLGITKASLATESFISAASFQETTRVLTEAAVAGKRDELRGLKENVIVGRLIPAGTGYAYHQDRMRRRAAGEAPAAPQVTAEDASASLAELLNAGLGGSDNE
Chain of UniProt P08684 (whole entry, looked up): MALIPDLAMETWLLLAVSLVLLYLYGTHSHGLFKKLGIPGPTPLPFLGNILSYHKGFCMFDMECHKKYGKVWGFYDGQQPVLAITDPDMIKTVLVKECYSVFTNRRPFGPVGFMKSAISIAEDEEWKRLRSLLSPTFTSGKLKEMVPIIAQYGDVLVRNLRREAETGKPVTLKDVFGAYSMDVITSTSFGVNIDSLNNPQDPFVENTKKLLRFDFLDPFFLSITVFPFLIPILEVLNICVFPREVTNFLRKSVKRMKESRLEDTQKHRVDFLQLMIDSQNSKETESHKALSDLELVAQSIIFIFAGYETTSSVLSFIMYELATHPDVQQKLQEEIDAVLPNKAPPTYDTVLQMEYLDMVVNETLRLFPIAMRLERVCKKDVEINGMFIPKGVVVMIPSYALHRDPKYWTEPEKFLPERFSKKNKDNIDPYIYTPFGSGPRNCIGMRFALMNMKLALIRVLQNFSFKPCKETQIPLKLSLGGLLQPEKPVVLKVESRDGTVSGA
Chain of UniProt P0A8V2 (whole entry, looked up): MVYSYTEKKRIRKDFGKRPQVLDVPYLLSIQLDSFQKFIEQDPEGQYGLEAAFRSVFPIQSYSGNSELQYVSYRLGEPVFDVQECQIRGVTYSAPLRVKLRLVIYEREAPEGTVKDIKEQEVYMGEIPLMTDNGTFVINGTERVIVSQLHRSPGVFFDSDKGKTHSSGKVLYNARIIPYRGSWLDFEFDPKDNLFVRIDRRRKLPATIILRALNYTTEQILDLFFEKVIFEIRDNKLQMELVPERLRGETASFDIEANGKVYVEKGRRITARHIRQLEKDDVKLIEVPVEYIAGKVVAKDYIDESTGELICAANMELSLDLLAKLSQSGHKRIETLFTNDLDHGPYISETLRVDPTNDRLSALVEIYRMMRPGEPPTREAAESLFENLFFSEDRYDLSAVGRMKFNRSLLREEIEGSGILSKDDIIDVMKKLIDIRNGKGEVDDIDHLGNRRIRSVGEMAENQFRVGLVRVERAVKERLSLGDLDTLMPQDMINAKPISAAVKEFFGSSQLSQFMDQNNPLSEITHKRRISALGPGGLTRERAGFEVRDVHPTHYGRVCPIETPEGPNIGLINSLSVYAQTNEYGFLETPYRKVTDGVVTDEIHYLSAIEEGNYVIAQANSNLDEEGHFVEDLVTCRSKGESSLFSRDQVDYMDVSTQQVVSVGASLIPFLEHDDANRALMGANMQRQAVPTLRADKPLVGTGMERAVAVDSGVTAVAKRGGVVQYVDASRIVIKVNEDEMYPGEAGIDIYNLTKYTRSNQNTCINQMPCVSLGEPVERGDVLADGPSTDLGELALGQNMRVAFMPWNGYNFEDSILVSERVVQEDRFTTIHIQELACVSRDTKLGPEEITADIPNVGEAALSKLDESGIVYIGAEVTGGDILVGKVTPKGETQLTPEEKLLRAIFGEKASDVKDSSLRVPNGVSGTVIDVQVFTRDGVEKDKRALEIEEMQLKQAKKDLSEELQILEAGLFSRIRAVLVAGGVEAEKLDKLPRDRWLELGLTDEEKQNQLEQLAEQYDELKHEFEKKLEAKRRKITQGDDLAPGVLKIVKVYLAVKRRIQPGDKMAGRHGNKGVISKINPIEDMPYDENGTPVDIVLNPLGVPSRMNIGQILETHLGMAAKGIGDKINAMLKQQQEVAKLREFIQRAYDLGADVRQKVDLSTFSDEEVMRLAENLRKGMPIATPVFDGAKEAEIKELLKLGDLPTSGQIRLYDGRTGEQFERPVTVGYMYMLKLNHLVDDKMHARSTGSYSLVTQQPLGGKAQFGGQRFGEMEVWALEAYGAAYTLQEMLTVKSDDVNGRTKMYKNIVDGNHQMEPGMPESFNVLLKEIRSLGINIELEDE

Molecule	target or system	test	system	setting	scale	quantity	result
CC[C@H](C)[C@H](NC(=O)[C@H](CC(C)C)NC(=O)[C@H](CO)NC(=O)[C@H](Cc1c[nH]cn1)NC(=O)[C@@H](NC(=O)[C@H](CC(C)C)NC(=O)[C@H](CO)NC(=O)[C@@H](NC(=O)[C@H](Cc1ccc(O)cc1)NC(=O)[C@H](CC(N)=O)NC(=O)[C@H](CC(N)=O)NC(=O)[C@@H](NC(=O)[C@H](CCC(=O)O)NC(=O)[C@H](CCCNC(=N)N)NC(=O)[C@H](CC(=O)O)NC(=O)[C@H](Cc1c[nH]c2ccccc12)NC(=O)[C@H](CCC(=O)O)NC(=O)[C@H](CCSC)NC(=O)[C@H](Cc1c[nH]c2ccccc12)NC(C)=O)[C@@H](C)CC)[C@@H](C)O)[C@@H](C)CC)C(=O)N[C@@H](CCC(=O)O)C(=O)N[C@@H](CCC(=O)O)C(=O)N[C@@H](CO)C(=O)N[C@@H](CCC(N)=O)C(=O)N[C@@H](CC(N)=O)C(=O)N[C@@H](CCC(N)=O)C(=O)N[C@@H](CCC(N)=O)C(=O)N[C@@H](CCC(=O)O)C(=O)N[C@@H](CCCCN)C(=O)N[C@@H](CC(N)=O)C(=O)N[C@@H](CCC(=O)O)C(=O)N[C@@H](CCC(N)=O)C(=O)N[C@@H](CCC(=O)O)C(=O)N[C@@H](CC(C)C)C(=O)N[C@@H](CC(C)C)C(=O)NCC(=O)N[C@@H](CO)C(=O)NCC(=O)N[C@@H](CSCC(=O)O[C@H]1CC[C@@]2(C)C(=CC[C@H]3[C@@H]4CC[C@H]([C@H](C)CCCC(C)(C)O)[C@@]4(C)CC[C@@H]32)C1)C(N)=O		membrane binding, di-8-ANEPPS dipole potential	POPC:cholesterol:sphingomyelin LUVs	ratio 1:1:1		Kd	7.1 ± 5.3 µM
CNC(=O)[C@@H](NC(=O)[C@H](CC(C)C)[C@H](O)C(=O)NO)C(C)(C)C	Daboia russelii venom proteases (SVMP)	protease activity, inhibitor	MH population	100 µM, with: azocasein substrate	baseline: venom alone	remaining activity	0%
LTGTGVLTESNKKFL	human CD4 T cells	AIM	peptide			responding donors	7%
O=C1Nc2ccc(Cl)cc2[C@@](C#CC2CC2)(C(F)(F)F)O1	HIV-1	viral replication, single-round infection	RT mutant M184V			EC50	0.0003 ± 0.0001 µM
Nc1ncnc2c([C@@H]3N[C@H](CO)[C@@H](O)[C@H]3O)c[nH]c12	Marburg virus	viral replication	HeLa, Angola	100 µM		inhibition	98.5%
COc1ccccc1C(=O)NC1CCCN(Cc2cccc(-c3ccc(C)c(Cl)c3)c2)C1 (stereo not drawn)	SARS-CoV-2	cytopathic effect	USA_WA1/2020	round 1, 5-point		maximum response	65.5%
YECDIPIGAGI		AIM	peptide, CD8+ T cells from PBMC, human donors	dose not given		response magnitude per positive donor	101
Cn1cnc(Cn2c(=O)[nH]/c(=N\c3cc4cn(C)nc4cc3Cl)n(Cc3cc(F)c(F)cc3F)c2=O)n1	Cytochrome P450 3A4 (CYP3A4, Homo sapiens, UniProt P08684)	inhibitor	human liver microsomes	30 min preincubation, preincubation without NADPH, with: testosterone 60 µM		IC50	> 100 µM
CC(Nc1nc(N2CCNCC2C)nc2ccccc12)c1ccccc1 (stereo not drawn)	SARS-CoV-2	cytopathic effect, cell-based CPE	USA_WA1/2020	round 2, 5-point dilution		efficacy	112%
CC(=O)O[C@@H]1[C@H](N)[C@@H](OP(=O)(O)O)[C@@]2(C(=O)O)CS[C@@](O)(C(N)=O)[C@@H]1O2	DNA-directed RNA polymerase subunit beta' / DNA-directed RNA polymerase subunit beta (rpoC/rpoB, Escherichia coli, UniProt P0A8T7+P0A8V2)	binding to elongation complex, 6-MI fluorescence titration	wild-type RNAP	2′-deoxy RNA 3′-end Cytosine		Kd	3.8 ± 1.1 µM
Cc1cc(/C=C/C#N)cc(C)c1-n1cnc2cnc(Nc3ccc(/C=C/C#N)cc3)nc21	HIV-1	viral replication, single-round infection	RT mutant L234I			EC50	< 0.0023 µM
Clc1ccc2nc(N3CCC(NCCc4cccnc4)CC3)sc2c1	SARS-CoV-2	cytopathic effect	USA_WA1/2020	retest, 8-point, duplicates		efficacy	64%
CC(C)(C)[C@H](NC(=O)C(F)(F)F)C(=O)N1C[C@H]2[C@@H]([C@H]1C(=O)N[C@H](C#N)C[C@@H]1CCNC1=O)C2(C)C			human, plasma	oral, 500 mg single dose		half-life	18.5 h
KASMPTTIA		AIM	peptide, CD8+ T cells from PBMC, human donors	HLA-A*30:01 restricted, unit not given	baseline: positive over tested donors	frequency of responding donors	100
COc1cc2c(cc1OCC1CC1)NC(=O)C21CCN(c2cc(NC3CC3)ncn2)CC1	SARS-CoV-2	cytopathic effect	USA_WA1/2020	round 1, 5-point		maximum response	76.5%
FKIYSKHTPINLVRD	human CD4 T cells	AIM	peptide			responding donors	18%
CC[C@H](C)[C@H](NC(=O)[C@H](CC(C)C)NC(=O)[C@H](Cc1c[nH]c2ccccc12)NC(=O)[C@H](CCC(N)=O)NC(=O)[C@@H](NC(=O)[C@H](Cc1ccccc1)NC(=O)[C@H](C)NC(=O)[C@H](CCCCNC(=O)COCCOCCNC(=O)COCCOCCNC(=O)CC[C@H](NC(=O)CCCCCCCCCCCCCCCCCCC(=O)O)C(=O)O)NC(=O)[C@H](CCC(N)=O)NC(=O)[C@H](C)NC(=O)[C@@H](NC(=O)[C@H](CCCCN)NC(=O)[C@H](CC(=O)O)NC(=O)[C@H](CC(C)C)NC(=O)C(C)(C)NC(=O)[C@@H](NC(=O)[C@H](CO)NC(=O)[C@H](Cc1ccc(O)cc1)NC(=O)[C@H](CC(=O)O)NC(=O)[C@H](CO)NC(=O)[C@@H](NC(=O)[C@H](Cc1ccccc1)NC(=O)[C@@H](NC(=O)CNC(=O)[C@H](CCC(=O)O)NC(=O)C(C)(C)NC(=O)[C@@H](N)Cc1ccc(O)cc1)[C@@H](C)O)[C@@H](C)O)[C@@H](C)CC)[C@@H](C)CC)C(C)C)C(=O)N[C@@H](C)C(=O)NCC(=O)NCC(=O)N1CCC[C@H]1C(=O)N[C@@H](CO)C(=O)N[C@@H](CO)C(=O)NCC(=O)N[C@@H](C)C(=O)N1CCC[C@H]1C(=O)N1CCC[C@H]1C(=O)N1CCC[C@H]1C(=O)N[C@@H](CO)C(N)=O			healthy subjects, single ascending dose	5.0 mg, postbaseline		treatment-emergent ADA positive subjects	0%
Cn1cnc(Cn2c(=O)[nH]/c(=N\c3cc4cn(C)nc4cc3Cl)n(Cc3cc(F)c(F)cc3F)c2=O)n1			human, mild renal impairment	oral, 375 mg		treatment-related TEAE, Moderate severity	0%

Excerpt of the above:
Molecule	target or system	test	system	setting	scale	quantity	result
CC(Nc1nc(N2CCNCC2C)nc2ccccc12)c1ccccc1 (stereo not drawn)	SARS-CoV-2	cytopathic effect, cell-based CPE	USA_WA1/2020	round 2, 5-point dilution		efficacy	112%
CC(=O)O[C@@H]1[C@H](N)[C@@H](OP(=O)(O)O)[C@@]2(C(=O)O)CS[C@@](O)(C(N)=O)[C@@H]1O2	DNA-directed RNA polymerase subunit beta' / DNA-directed RNA polymerase subunit beta (rpoC/rpoB, Escherichia coli, UniProt P0A8T7+P0A8V2)	binding to elongation complex, 6-MI fluorescence titration	wild-type RNAP	2′-deoxy RNA 3′-end Cytosine		Kd	3.8 ± 1.1 µM
